Experimental data from different studies.
Each numbered part is a random draw from the data of one study; scales do not carry over between parts.

Series 1 — technique: protein-binding microarray; molecule type: double-stranded DNA, one strand shown; medium: in vitro; concentration: 250 nM; setting: 60-bp whole probe; together with: salmon DNA 0.4 mg/ml; baseline: random background probes; reading: higher = stronger binding; endpoint: log fluorescence; all sequences stand within: GCCTAGCAC … GTCTTGATTCGCTTGACGCTGCTG
Target: Interferon regulatory factor 7, full length, phosphomimetic (IRF7, Homo sapiens, UniProt Q92985, residues 1-503, S101K/S471D/S472D/S475D/S476D/S477D/S483D/S484D/S487D)
Residues (chain): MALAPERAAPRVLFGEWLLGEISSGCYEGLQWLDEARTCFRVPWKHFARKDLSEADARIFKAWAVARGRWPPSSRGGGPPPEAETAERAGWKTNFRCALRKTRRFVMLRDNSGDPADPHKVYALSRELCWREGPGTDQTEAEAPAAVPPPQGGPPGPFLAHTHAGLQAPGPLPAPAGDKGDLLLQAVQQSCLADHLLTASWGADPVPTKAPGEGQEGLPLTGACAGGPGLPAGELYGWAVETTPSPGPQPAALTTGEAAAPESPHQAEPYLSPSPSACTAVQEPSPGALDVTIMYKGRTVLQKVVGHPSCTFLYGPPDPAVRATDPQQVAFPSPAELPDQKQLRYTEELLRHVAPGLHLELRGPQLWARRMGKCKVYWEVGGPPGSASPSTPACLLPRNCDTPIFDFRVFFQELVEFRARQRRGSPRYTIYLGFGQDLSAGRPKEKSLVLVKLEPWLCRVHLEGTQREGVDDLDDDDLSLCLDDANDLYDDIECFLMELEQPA
TCTACAATGGCTTTGCCTTTGTGCTAG: -0.697 z-score
GACGGTTTCCTACTGCCGACGTGCTAG: 1.79 z-score
TTAGATATCGGGACTGGATAAGTGCTA: 0.192 z-score
TTAGTTTTCGGGTTTCGGTTAGTGCTA: 9.22 z-score
TTAGGACTGCTGCTCCTTTAGTGCTAG: -0.553 z-score

Series 2 — technique: universal PBM; molecule type: double-stranded DNA, one strand shown; medium: in vitro; concentration: 600 nM; reading: higher = stronger binding; endpoint: E-score
Target: Sal-like protein 4, full length isoform A (SALL4, Homo sapiens, UniProt Q9UJQ4, residues 1-1053)
Sequence of UniProt Q9UJQ4 (whole entry, looked up): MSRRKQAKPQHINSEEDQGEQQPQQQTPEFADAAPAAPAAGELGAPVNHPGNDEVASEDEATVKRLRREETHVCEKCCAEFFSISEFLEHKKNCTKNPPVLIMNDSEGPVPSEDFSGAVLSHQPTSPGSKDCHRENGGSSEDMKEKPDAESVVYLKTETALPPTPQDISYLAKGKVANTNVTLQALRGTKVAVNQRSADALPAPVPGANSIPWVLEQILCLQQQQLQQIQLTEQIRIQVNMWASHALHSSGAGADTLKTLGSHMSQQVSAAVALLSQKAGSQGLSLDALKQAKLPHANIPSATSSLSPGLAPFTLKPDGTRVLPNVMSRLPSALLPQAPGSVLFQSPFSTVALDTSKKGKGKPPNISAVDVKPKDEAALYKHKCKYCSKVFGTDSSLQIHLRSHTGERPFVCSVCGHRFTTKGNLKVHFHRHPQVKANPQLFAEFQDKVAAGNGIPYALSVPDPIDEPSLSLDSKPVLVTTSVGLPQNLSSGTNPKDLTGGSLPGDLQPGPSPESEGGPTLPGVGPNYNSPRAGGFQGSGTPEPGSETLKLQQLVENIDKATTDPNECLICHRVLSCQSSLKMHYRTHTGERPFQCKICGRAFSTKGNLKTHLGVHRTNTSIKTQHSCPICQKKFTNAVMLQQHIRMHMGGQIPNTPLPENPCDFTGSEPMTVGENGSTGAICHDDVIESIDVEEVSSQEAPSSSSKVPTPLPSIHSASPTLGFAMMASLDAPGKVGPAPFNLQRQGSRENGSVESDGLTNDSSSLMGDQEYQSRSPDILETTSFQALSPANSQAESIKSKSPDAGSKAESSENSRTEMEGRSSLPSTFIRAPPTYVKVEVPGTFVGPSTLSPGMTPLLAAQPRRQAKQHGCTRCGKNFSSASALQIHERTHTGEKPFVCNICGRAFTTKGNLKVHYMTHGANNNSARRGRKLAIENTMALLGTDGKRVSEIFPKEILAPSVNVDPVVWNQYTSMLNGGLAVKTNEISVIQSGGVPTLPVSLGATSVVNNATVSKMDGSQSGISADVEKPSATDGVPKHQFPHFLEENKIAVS
Setting: 8-mer, flanks averaged, mean of replicates
AGGGCTCG: -0.249
ACGTTCGC: -0.171
GTAACGGA: -0.0464

Series 3 — technique: protein binding microarray; molecule type: double-stranded DNA, one strand shown; medium: in vitro; concentration: not given; baseline: not given; reading: higher = stronger binding; endpoint: E-score
Target: Histone acetyltransferase KAT6A, winged helix 2, GST fusion (KAT6A, Homo sapiens, UniProt Q92794, residues 85-181)
Setting: 8-mer, flanks averaged, mean of 2 arrays, mostly near background
Construct (chain): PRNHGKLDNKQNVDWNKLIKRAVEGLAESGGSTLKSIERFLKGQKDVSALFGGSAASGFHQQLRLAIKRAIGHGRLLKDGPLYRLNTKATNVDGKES
AACCGAAT: 0.0121
GACTACTC: -0.118
ATGTGCGA: 0.101

Single results of other studies
PhoQ, residues 284 288 289 292 302 303 ALSMDL — fold induction (PhoP, residues 12 14 15 18 19 IFFTR (Escherichia coli, UniProt P23836); Sort-seq, item: YFP reporter; E. coli; PhoQ-PhoP variant library, together with: 10 µM Mg2+; baseline: high Mg2+ state, higher = stronger signaling): 2.28

Repeated from above (series 1):
TTAGATATCGGGACTGGATAAGTGCTA: 0.192 z-score
TTAGTTTTCGGGTTTCGGTTAGTGCTA: 9.22 z-score
